{"data": "Results collected from several papers", "CHRNA1/Acetylcholine receptor subunit epsilon/Acetylcholine receptor subunit delta with beta1 subunit": "CHRNA1/Acetylcholine receptor subunit epsilon/Acetylcholine receptor subunit delta, with beta1 subunit (Homo sapiens, UniProt P02708+Q04844+Q07001)", "note": "Each line is one published result; not all experiments were run side by side. ± gives the spread as reported."}
{"SMILES": "C1CCC2(CC1)CCNCC2", "target or system": "Matrix protein 2 (Influenza A virus, UniProt P0DOF5)", "test": "viral replication", "test system": "Udorn", "measurement": "IC50", "value": "0.9 ± 0.1 µM"}
{"SMILES": "C[C@@H](O)[C@@H]1NC(=O)[C@@H]2CSCSC[C@@H](C(=O)N[C@H](CC(=O)N[C@@H](CCCNC(=N)N)C(=O)O)Cc3ccc(O)cc3)NC(=O)[C@H](CCC(N)=O)NC(=O)[C@H](Cc3ccc(O)c(I)c3)NC(=O)[C@H](CCCNC(=N)N)NC(=O)[C@H](CSSC[C@H](NC(=O)CN)C(=O)N2)NC(=O)[C@H](CCCNC(=N)N)NC(=O)[C@@H]2CCCN2C(=O)[C@H](CC(=O)O)NC1=O", "target or system": "CHRNA1/Acetylcholine receptor subunit epsilon/Acetylcholine receptor subunit delta with beta1 subunit", "test": "ion current, antagonist, two-electrode voltage clamp", "test system": "Xenopus oocytes", "setting": "no inhibition at top concentration", "measurement": "IC50", "value": "> 10 µM"}
{"SMILES": "CC[C@H](C)[C@@H]1NC(=O)[C@H](CCC(=O)O)NC(=O)[C@@H]2CCCN2C(=O)[C@H](Cc2c[nH]cn2)NC(=O)[C@H](CCCNC(=N)N)NC(=O)[C@H](C(C)C)NC(=O)[C@H](CC(N)=O)NC(=O)[C@@H]2CSSC[C@H](NC(=O)CN)C(=O)N[C@@H](CSSC[C@@H](C(N)=O)NC1=O)C(=O)N[C@@H](CO)C(=O)N[C@@H](Cc1c[nH]cn1)C(=O)N1CCC[C@H]1C(=O)N[C@@H](C(C)C)C(=O)N2", "target or system": "CHRNA1/Acetylcholine receptor subunit epsilon/Acetylcholine receptor subunit delta with beta1 subunit", "test": "ion current, antagonist, two-electrode voltage clamp", "test system": "Xenopus oocytes", "setting": "with: ACh 100 µM", "measurement": "IC50", "value": "> 10 µM"}
{"SMILES": "CN(C)c1cccc(Oc2cnc(Nc3cccc(O)c3)nc2)c1", "target or system": "Amyloid-beta precursor protein, Aβ42 with fibrinogen (APP, Homo sapiens, UniProt P05067)", "test": "AlphaLISA", "measurement": "IC50", "value": "29.1 µM"}
{"SMILES": "COc1ccc2c(c1)c(CC(=O)NCCCCNC(=O)c1ccc(C3=c4cc5c6c(c4Oc4c3cc3c7c4CCCN7CCC3)CCC[N+]=6CCC5)c(C(=O)NC3CC(C)(C)N([O])C(C)(C)C3)c1)c(C)n2C(=O)c1ccc(Cl)cc1", "target or system": "PTGS1 (Ovis aries, UniProt P05979)", "test": "enzyme activity, inhibitor, TLC", "setting": "with: [14C]arachidonic acid", "measurement": "IC50", "value": "> 4 µM"}
{"SMILES": "Cc1nn(-c2ccc(Cl)cc2)c2c1C(c1cccc(Cl)c1Cl)C(C#N)=C(N)O2 (stereo not shown)", "target or system": "Vero E6", "test": "MTT", "setting": "25 µM", "measurement": "viability", "value": "55.6%"}
{"SMILES": "COP(=O)(OC)Oc1ccc([N+](=O)[O-])cc1Cl", "target or system": "Ache (Rattus norvegicus, UniProt P37136)", "test": "enzyme activity, inhibitor, discontinuous Ellman", "test system": "rat, postnatal day 1, rat skeletal muscle homogenate", "setting": "15 min, 37 °C", "measurement": "IC50", "value": "0.082 µM"}
{"SMILES": "O=C(Nc1cccc(C2=NCCN2)c1)c1ccc(-c2ccc(C(=O)Nc3cccc(C4=NCCN4)c3)cc2)cc1", "target or system": "farnesyl diphosphate synthase (Trypanosoma brucei, UniProt Q57WF1)", "test": "enzyme activity", "measurement": "IC50", "value": "27 ± 0.25 µM"}
{"SMILES": "CCOC(=O)c1c(-c2ccc(Cl)cc2Cl)n(-c2nc(-c3ccc(Cl)cc3)c3c(NC(=O)c4ccccc4)nnc-3[nH]2)[nH]c1=O", "target or system": "MOLT-4", "test": "SRB", "measurement": "CC50", "value": "> 100 µM"}
{"SMILES": "CC[N+](CC)(CCNC(=O)C(=O)NCC[N+](CC)(CC)Cc1ccccc1Cl)Cc1ccccc1Cl", "target or system": "Cholinesterase (BCHE, Homo sapiens, UniProt P06276)", "test": "enzyme activity, inhibitor", "measurement": "IC50", "value": "6.8 ± 1.1 µM"}
{"SMILES": "N#Cc1c(-c2ccc(Cl)cc2Cl)n(-c2nc(-c3ccc(Cl)cc3)c3c(NC(=O)c4ccccc4)nnc-3[nH]2)[nH]c1=O", "target or system": "UACC-257", "test": "SRB", "measurement": "CC50", "value": "> 100 µM"}
{"SMILES": "Cc1cn([C@@H]2CC[C@H](OC(C(=O)O)P(=O)(O)O)C2)c(=O)[nH]c1=O (relative stereo)", "target or system": "DNA polymerase catalytic subunit (Human cytomegalovirus, UniProt P08546)", "test": "enzyme activity, inhibitor", "setting": "with: activated calf thymus DNA", "measurement": "IC50", "value": "38 ± 11 µM"}
{"SMILES": "Cc1nn(-c2ccc(Cl)cc2)c2c1C(c1ccc(O)cc1)C(C#N)=C(N)O2 (stereo not shown)", "target or system": "Vero E6", "setting": "0.4 µM", "measurement": "viability", "value": "84.4%"}
{"note": "A few entries again:"}
{"SMILES": "N#Cc1c(-c2ccc(Cl)cc2Cl)n(-c2nc(-c3ccc(Cl)cc3)c3c(NC(=O)c4ccccc4)nnc-3[nH]2)[nH]c1=O", "target or system": "UACC-257", "test": "SRB", "measurement": "CC50", "value": "> 100 µM"}
{"SMILES": "C[C@@H](O)[C@@H]1NC(=O)[C@@H]2CSCSC[C@@H](C(=O)N[C@H](CC(=O)N[C@@H](CCCNC(=N)N)C(=O)O)Cc3ccc(O)cc3)NC(=O)[C@H](CCC(N)=O)NC(=O)[C@H](Cc3ccc(O)c(I)c3)NC(=O)[C@H](CCCNC(=N)N)NC(=O)[C@H](CSSC[C@H](NC(=O)CN)C(=O)N2)NC(=O)[C@H](CCCNC(=N)N)NC(=O)[C@@H]2CCCN2C(=O)[C@H](CC(=O)O)NC1=O", "target or system": "CHRNA1/Acetylcholine receptor subunit epsilon/Acetylcholine receptor subunit delta with beta1 subunit", "test": "ion current, antagonist, two-electrode voltage clamp", "test system": "Xenopus oocytes", "setting": "no inhibition at top concentration", "measurement": "IC50", "value": "> 10 µM"}
